Assay results collected from several papers.
Protocols differ between the studies behind these lines. ± marks the error that the study gave.

Substance = CCCCC/C=C\C/C=C\C/C=C\C/C=C\CCCC(=O)NCCO; target = Faah (Rattus norvegicus, UniProt P97612); test = substrate; test system = Sprague-Dawley rats, voluntary exercise, rat hippocampus membranes; Km = 0.61 ± 0.09 µM
Substance = GGNWST; target = UDP-glucose:protein N-beta-glucosyltransferase (Actinobacillus pleuropneumoniae serotype 5b, UniProt A3N2T3, D215R/Q469A); test = substrate; test system = peptide; conditions = 15 min, pH 8.0, 37 °C, D215R mutant, together with: UDP-Glc 100 mM; Km = 17600 ± 2500 µM
Substance = CC(=O)C(=O)O; target = dxs (Escherichia coli, UniProt P77488, H299A); test = substrate; Km = 1100 µM
Substance = CCCCCCCC/C=C\CCCCCCCC(=O)O; target = rpfB (Xanthomonas campestris, UniProt O05174); test = substrate, DTNB thiol; conditions = pH 7.2, 30 °C, together with: ATP 5 mM and CoA 0.5 mM; Km = 49.2 µM
Substance = O=C[C@H](O)COP(=O)(O)O; target = dxs (Escherichia coli, UniProt P77488, Y392F); test = substrate; Km = 280 ± 30 µM
Substance = NC(=O)C1=CN([C@@H]2O[C@H](COP(=O)(O)OP(=O)(O)OC[C@H]3O[C@@H](n4cnc5c(N)ncnc54)[C@H](O)[C@@H]3O)[C@@H](O)[C@H]2O)C=CC1; target = mtlD (Pseudomonas fluorescens, UniProt O08355, E292A); test = substrate; Km = 7 ± 1 µM
Substance = CCCCCCCCCCCCCCCC(=O)Oc1ccc([N+](=O)[O-])cc1; target = Pseudomonas aeruginosa mutant alkaline lipase; test = substrate; Km = 2 mg/mL
Substance = NCCc1c[nH]c2ccc(O)cc12; target = serotonin transporter (Echinococcus granulosus, UniProt W6UF91); test = substrate; Km = 2.2 ± 0.8 µM
Substance = O=[N+]([O-])c1ccc(O)c(Cl)c1; target = 4-nitrophenol 4-monooxygenase/4-nitrocatechol 2-monooxygenase, oxygenase component (npcA, Rhodococcus opacus, UniProt Q6F4M8); test = substrate; Km = 21.9 ± 3.34 µM
Substance = OCCSSCCO; target = glutaredoxin (Alkaliphilus oremlandii, UniProt A8MIN3, C16S); test = substrate; Km = 900 ± 200 µM
Substance = CCCCCCCCCCCC(=O)OC1=CC(C)(C)N([O])C(C)(C)C1; target = CES1 (Homo sapiens, UniProt P23141); Km = 36.9 ± 4.92 µM
Substance = COc1cc(-c2ccc(N)c(OC)c2)ccc1N; target = Moringa oleifera peroxidase; test = substrate; conditions = together with: H2O2 1 mM; Km = 19.4 ± 41 µM
Substance = CN(CCCC(=O)c1cccnc1)N=O; target = AKR1C4 (Homo sapiens, UniProt P17516); test = substrate; Km = 800 ± 100 µM
Substance = O=[N+]([O-])c1ccc(Cl)c([N+](=O)[O-])c1; target = Glutathione S-transferase sigma 1 (Clonorchis sinensis, UniProt O97096); test = substrate; Km = 730 µM

Excerpt of the above:
Substance = O=C[C@H](O)COP(=O)(O)O; target = dxs (Escherichia coli, UniProt P77488, Y392F); test = substrate; Km = 280 ± 30 µM
Substance = NC(=O)C1=CN([C@@H]2O[C@H](COP(=O)(O)OP(=O)(O)OC[C@H]3O[C@@H](n4cnc5c(N)ncnc54)[C@H](O)[C@@H]3O)[C@@H](O)[C@H]2O)C=CC1; target = mtlD (Pseudomonas fluorescens, UniProt O08355, E292A); test = substrate; Km = 7 ± 1 µM
